Results collected from several papers.
Lines come from different studies, so protocols differ. Values joined by “and” are separate records of one study, mostly repeats; a detail may differ. ± marks the error that the study gave.
VSIR IgV domain: V-type immunoglobulin domain-containing suppressor of T-cell activation, IgV domain (VSIR, Homo sapiens, UniProt Q9H7M9)
Sequence of UniProt Q9H7M9 (whole entry, looked up): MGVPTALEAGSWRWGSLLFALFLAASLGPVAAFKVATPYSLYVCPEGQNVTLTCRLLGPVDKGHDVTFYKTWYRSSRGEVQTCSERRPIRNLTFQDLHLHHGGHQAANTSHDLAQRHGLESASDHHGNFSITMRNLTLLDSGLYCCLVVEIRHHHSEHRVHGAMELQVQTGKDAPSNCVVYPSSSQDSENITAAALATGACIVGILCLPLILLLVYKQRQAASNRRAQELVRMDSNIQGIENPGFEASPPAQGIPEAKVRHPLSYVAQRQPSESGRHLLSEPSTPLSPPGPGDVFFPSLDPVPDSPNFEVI
F-box only protein 22: F-box only protein 22 (Homo sapiens, UniProt Q8NEZ5)
Sequence of UniProt Q8NEZ5 (whole entry, looked up): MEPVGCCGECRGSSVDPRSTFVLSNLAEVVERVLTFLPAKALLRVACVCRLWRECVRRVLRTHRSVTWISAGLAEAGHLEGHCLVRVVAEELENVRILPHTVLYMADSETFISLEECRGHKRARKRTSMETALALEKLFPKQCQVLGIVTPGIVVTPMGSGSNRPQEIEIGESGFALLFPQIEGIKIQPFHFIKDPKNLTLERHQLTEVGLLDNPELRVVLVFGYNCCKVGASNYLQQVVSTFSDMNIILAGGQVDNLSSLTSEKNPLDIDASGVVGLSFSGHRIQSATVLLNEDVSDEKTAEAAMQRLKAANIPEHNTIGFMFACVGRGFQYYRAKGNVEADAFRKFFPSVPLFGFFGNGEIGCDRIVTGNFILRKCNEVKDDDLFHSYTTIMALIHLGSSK
YWHAZ: 14-3-3 protein zeta/delta (YWHAZ, Homo sapiens, UniProt P63104)
Sequence of UniProt P63104 (whole entry, looked up): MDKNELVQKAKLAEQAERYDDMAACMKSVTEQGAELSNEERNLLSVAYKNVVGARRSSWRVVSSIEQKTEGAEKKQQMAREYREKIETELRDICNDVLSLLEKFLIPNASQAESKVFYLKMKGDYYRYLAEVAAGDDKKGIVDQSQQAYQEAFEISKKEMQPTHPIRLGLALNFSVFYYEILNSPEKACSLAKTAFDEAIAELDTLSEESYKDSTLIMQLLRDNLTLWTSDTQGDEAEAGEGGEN
Sequence of UniProt Q9H2X3 (whole entry, looked up): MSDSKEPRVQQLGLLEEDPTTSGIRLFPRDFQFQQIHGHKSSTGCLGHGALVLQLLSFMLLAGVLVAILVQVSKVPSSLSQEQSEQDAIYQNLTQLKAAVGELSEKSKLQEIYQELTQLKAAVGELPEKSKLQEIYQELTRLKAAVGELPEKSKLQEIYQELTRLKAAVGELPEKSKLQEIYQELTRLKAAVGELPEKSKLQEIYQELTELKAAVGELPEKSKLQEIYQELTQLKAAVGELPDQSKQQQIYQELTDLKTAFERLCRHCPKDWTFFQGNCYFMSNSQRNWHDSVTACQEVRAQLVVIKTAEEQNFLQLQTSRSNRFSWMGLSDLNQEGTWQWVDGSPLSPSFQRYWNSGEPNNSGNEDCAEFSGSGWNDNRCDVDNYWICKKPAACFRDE
Sequence of UniProt O75581 (whole entry, looked up): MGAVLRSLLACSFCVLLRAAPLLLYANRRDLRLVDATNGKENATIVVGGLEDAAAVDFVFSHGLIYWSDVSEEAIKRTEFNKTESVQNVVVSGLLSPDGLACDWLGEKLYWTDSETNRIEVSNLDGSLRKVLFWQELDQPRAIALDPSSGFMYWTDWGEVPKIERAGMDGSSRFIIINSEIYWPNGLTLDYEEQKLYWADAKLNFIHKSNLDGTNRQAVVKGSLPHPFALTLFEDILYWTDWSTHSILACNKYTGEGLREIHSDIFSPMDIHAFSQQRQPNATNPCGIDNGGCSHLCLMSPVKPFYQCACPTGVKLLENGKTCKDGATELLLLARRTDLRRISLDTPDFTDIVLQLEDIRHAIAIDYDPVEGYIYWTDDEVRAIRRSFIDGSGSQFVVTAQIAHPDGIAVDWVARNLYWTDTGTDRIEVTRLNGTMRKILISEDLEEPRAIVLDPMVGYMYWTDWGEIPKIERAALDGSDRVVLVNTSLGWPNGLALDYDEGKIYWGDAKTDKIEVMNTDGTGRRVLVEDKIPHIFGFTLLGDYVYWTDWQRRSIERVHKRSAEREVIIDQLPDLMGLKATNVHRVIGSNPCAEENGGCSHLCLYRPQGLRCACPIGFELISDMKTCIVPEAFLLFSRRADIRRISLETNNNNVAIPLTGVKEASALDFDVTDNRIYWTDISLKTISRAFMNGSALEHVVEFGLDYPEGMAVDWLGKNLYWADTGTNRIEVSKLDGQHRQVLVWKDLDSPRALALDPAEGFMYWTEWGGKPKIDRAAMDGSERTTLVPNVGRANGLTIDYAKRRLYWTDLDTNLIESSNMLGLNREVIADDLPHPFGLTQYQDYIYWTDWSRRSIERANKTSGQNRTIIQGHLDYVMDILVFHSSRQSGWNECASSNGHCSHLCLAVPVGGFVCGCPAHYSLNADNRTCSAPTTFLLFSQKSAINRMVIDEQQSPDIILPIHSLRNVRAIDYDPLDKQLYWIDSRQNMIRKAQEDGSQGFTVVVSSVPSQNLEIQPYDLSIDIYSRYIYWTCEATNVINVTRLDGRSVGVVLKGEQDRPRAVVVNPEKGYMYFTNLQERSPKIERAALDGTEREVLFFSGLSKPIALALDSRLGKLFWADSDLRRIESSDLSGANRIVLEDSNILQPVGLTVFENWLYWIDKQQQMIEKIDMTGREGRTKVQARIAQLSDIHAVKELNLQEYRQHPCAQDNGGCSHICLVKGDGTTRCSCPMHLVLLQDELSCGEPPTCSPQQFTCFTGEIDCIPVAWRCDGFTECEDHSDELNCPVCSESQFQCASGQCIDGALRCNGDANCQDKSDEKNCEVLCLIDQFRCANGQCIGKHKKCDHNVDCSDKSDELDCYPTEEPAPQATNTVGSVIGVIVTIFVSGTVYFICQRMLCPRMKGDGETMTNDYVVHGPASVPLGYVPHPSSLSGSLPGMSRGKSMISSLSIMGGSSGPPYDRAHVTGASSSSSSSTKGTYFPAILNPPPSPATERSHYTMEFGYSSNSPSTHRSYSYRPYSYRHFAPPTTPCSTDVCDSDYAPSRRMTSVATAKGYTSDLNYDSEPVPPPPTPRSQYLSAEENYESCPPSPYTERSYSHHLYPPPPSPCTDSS
Sequence of UniProt P52003 (whole entry, looked up): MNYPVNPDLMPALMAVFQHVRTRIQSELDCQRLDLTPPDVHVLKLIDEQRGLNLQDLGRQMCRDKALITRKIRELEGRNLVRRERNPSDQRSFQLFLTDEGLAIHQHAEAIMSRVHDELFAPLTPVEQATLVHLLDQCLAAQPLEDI
Sequence of UniProt P97287 (152-308, looked up): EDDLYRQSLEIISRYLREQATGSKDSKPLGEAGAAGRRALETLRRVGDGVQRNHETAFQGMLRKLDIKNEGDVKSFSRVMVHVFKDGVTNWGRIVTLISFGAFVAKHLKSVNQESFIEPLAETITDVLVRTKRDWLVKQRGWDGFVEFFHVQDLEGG
Sequence of UniProt P46108 (whole entry, looked up): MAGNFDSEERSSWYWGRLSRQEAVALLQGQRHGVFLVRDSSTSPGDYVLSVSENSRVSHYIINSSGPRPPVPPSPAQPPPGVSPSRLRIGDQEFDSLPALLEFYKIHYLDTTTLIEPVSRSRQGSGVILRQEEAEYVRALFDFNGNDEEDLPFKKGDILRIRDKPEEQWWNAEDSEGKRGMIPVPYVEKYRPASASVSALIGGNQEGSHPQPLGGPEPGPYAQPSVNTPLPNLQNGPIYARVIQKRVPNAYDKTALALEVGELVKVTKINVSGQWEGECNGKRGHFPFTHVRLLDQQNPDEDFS
Sequence of UniProt P21888 (whole entry, looked up): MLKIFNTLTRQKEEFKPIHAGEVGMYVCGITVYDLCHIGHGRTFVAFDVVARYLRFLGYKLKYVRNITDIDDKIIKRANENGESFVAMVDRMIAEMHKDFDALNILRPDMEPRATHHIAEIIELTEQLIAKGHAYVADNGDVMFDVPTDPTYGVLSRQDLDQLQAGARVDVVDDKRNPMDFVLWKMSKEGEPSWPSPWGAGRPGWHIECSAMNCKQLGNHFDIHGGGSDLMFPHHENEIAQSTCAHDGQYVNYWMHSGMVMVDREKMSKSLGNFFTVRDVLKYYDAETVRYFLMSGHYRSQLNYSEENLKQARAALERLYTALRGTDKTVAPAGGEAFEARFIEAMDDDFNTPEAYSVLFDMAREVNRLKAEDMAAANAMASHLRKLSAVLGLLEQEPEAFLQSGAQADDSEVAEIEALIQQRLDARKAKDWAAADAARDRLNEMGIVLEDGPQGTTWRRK
Sequence of UniProt Q14145 (whole entry, looked up): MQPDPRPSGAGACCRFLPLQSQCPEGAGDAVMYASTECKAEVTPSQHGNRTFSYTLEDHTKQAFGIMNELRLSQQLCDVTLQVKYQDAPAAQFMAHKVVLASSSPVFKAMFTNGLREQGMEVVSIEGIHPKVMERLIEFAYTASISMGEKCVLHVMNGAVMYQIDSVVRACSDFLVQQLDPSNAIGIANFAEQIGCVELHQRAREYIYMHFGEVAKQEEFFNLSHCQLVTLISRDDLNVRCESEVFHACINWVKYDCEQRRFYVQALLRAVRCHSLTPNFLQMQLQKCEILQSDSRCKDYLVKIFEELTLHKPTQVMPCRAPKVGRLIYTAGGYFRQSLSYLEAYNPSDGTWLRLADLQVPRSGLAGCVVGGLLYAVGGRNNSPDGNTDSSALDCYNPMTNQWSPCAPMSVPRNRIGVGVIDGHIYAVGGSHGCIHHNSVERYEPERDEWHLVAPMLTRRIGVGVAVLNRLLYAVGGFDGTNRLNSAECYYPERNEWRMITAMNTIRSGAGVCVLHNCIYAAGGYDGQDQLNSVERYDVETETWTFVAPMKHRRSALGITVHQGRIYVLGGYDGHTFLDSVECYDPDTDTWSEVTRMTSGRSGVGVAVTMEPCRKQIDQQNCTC
Sequence of UniProt P30048 (whole entry, looked up): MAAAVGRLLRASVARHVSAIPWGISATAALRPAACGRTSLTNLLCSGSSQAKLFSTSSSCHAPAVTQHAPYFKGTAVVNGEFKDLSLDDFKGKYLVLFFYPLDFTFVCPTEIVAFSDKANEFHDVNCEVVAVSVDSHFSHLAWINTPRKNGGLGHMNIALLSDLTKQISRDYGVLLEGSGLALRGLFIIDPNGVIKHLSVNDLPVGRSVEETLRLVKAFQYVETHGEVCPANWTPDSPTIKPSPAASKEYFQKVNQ

| SMILES | target | test | setting | scale | Kd |
| --- | --- | --- | --- | --- | --- |
| Cn1c2cccc(=O)c-2nc2ccccc21 | Multidrug resistance operon repressor (mexR, Pseudomonas aeruginosa, UniProt P52003) | binding, competitive microscale thermophoresis |  |  | 16.5 µM |
| CC(=O)NC1C(O)OC(CO)C(OC2OC(CO)C(OC3OC(CO)C(O)C(O)C3O)C(O)C2O)C1O (stereo not drawn) | sly (Streptococcus suis, UniProt Q55996, D394A) | binding |  |  | 0.78 µM |
| CC(C)C[C@H](NC(=O)[C@H](CO)NC(=O)CNC(=O)[C@H](Cc1ccccc1)NC(=O)[C@H](CC(N)=O)NC(=O)[C@H](Cc1c[nH]c2ccccc12)NC(=O)[C@H](Cc1c[nH]c2ccccc12)NC(=O)CN)C(=O)N[C@H](C(=O)N[C@@H](CO)C(=O)N1CCC[C@H]1C(=O)N[C@H](C(=O)O)[C@@H](C)O)[C@@H](C)O | VSIR IgV domain | binding, microscale thermophoresis |  |  | 9.64 µM |
| O=C(N[C@@H]1c2ccccc2C[C@H]1N1CCCC1)c1ccc(-c2ccnc3[nH]ccc23)nc1 | Rhodopsin kinase GRK7 (GRK7, Homo sapiens, UniProt Q8WTQ7) | binding, competition with immobilised ligand |  |  | 0.31 µM |
| C[C@H](N)C(=O)N[C@@H](CCCNC(=N)N)C(=O)N[C@H](C(=O)N[C@@H](CCCCN)C(=O)N[C@@H](CCC(N)=O)C(=O)N[C@H](C(=O)N[C@@H](C)C(=O)N[C@@H](CCCNC(=N)N)C(=O)N[C@@H](CCCCN)C(=O)N[C@@H](CO)C(=O)N[C@H](C(=O)NCC(=O)NCC(=O)N[C@@H](CCCCN)C(=O)N[C@@H](C)C(=O)N[C@@H](Cc1ccc(O)cc1)C(N)=O)[C@@H](C)O)[C@@H](C)O)[C@@H](C)O | Chromobox protein homolog 1, chromodomain (Homo sapiens, UniProt P83916, D59F/K43A) | ITC | pH 7.4, 25 °C |  | 46 ± 6 µM |
| N=C(N)NCc1cn([C@@H]2[C@@H](OCCn3cc(-c4cc(OCCOCCO)c(C#Cc5cc(OCCOCCO)c(C#Cc6cc(OCCOCCO)c(-c7cn(CCO[C@H]8O[C@H](CO)[C@@H](O)[C@H](O)[C@@H]8n8cc(CNC(=N)N)nn8)nn7)cc6OCCOCCO)cc5OCCOCCO)cc4OCCOCCO)nn3)O[C@H](CO)[C@@H](O)[C@@H]2O)nn1 | C-type lectin domain family 4 member M, extracellular domain (CLEC4M, Homo sapiens, UniProt Q9H2X3) | binding, surface binding |  | apparent Kd | 0.0537 µM and 0.0501 µM |
| CSCC[C@H](NC(=O)CNC(=O)[C@H](CCCNC(=N)N)NC(=O)[C@H](C)NC(=O)[C@@H](NC(=O)[C@H](CCC(N)=O)NC(=O)[C@H](Cc1ccc(OP(=O)(O)O)cc1)NC(=O)[C@H](C)NC(=O)[C@H](CS)NC(=O)[C@H](CO)NC(=O)[C@@H](NC(=O)[C@H](CC(C)C)NC(=O)[C@H](CC(=O)O)NC(=O)[C@H](CCCCN)NC(=O)[C@H](CO)NC(=O)[C@H](CO)NC(=O)c1ccc2c(c1)C(=O)OC21c2ccc(N(C)C)cc2Oc2cc(N(C)C)ccc21)C(C)C)C(C)C)C(=O)N[C@@H](CCC(=O)O)C(=O)N[C@@H](CC(=O)O)C(=O)O | Adapter molecule crk, SH2 domain (Homo sapiens, UniProt P46108) | binding |  |  | 0.26 µM |
| CC(C)C[C@H](NC(=O)CNC(=O)[C@H](C)NC(=O)[C@H](CC(=O)O)NC(=O)[C@H](CC(=O)O)NC(=O)[C@H](C)NC(=O)[C@@H]1CCCN1C(=O)[C@H](CCCCN)NC(=O)CNC(=O)[C@H](C)NC(=O)[C@@H]1CCCN1C(=O)[C@@H]1CCCN1C(=O)[C@H](CCC(=O)O)NC(=O)CN)C(=O)N[C@H](C(=O)O)C(C)C | F-box only protein 22 | binding, SPR |  |  | 24 µM |
| CC[C@H](C)[C@@H]1NC(=O)[C@@H](Cc2ccccc2)NC(=O)[C@@H](Cc2ccccc2)NC(=O)[C@@H](C)NC(=O)[C@H](CCC(=O)N[C@@H](CCCCN)C(N)=O)NC(=O)[C@@H](C)NC(=O)[C@@H](C)NC(=O)[C@@H](C)NC(=O)[C@H](Cc2c[nH]c3ccccc23)NC(=O)[C@H](CCCNC(=N)N)NC1=O | cysS (Escherichia coli, UniProt P21888) | binding |  |  | 1.1 µM |
| CC(C)C[C@H](NC(=O)[C@H](CCCCN)NC(=O)CNC(=O)[C@H](Cc1ccccc1)NC(=O)[C@H](CO)NC(=O)[C@H](Cc1c[nH]c2ccccc12)NC(=O)CNC(=O)[C@@H]1CCCN1C(=O)[C@@H](N)CC(=O)O)C(=O)N[C@@H](Cc1c[nH]cn1)C(=O)N[C@@H](Cc1c[nH]c2ccccc12)C(=O)N1CCC[C@H]1C(=O)O | VSIR IgV domain | binding, microscale thermophoresis |  |  | 0.019 µM |
| CC(=O)N[C@@H](CCCNC(=N)N)C(=O)N[C@H](C(=O)N1CCC[C@H]1C(=O)N[C@@H](COP(=O)(O)O)C(=O)N[C@@H](CC(C)C)C(=O)N1CCC[C@H]1C(=O)N[C@H](C(=O)N1CCC[C@H]1C(c1ccccc1)c1ccccc1)[C@@H](C)O)[C@@H](C)O | YWHAZ | isothermal titration calorimetry | second duplicate |  | 4.2 µM |
| CCC1C[C@H]2C(=O)N[C@@H](CCC(=O)O)C(=O)N[C@@H]([C@@H](C)O)C(=O)NCC(=O)N[C@@H](CCC(=O)O)C(=O)NC(CC)CC(=O)N[C@@H](CC(=O)O)C(=O)N2C1 (stereo partly drawn) | Kelch-like ECH-associated protein 1 (KEAP1, Homo sapiens, UniProt Q14145) | binding, MST |  |  | 0.0264 µM |
| CC(=O)N[C@@H](CCCNC(=N)N)C(=O)N[C@H](C(=O)N1CCC[C@H]1C(=O)N[C@@H](COP(=O)(O)O)C(=O)N[C@@H](CC(C)C)C(=O)N1CCC[C@H]1C(=O)N[C@@H](C(=O)N1CCC[C@H]1C(c1ccccc1)c1ccccc1)C(C)C)[C@@H](C)O | YWHAZ | isothermal titration calorimetry |  |  | 5.65 ± 3.19 µM |
| C=CC1CN2CCc3c([nH]c4ccccc34)C2CC1C(=COC)C(=O)OC (stereo not drawn) | Thioredoxin-dependent peroxide reductase, mitochondrial (PRDX3, Homo sapiens, UniProt P30048) | binding, SPR |  |  | 1.49 µM |
| CC(C)C[C@H](NC(=O)CNC(=O)[C@H](C)NC(=O)[C@H](CC(=O)O)NC(=O)[C@H](CC(=O)O)NC(=O)[C@H](C)NC(=O)[C@@H]1CCCN1C(=O)[C@H](C)NC(=O)CNC(=O)[C@@H]1CCCN1C(=O)[C@@H]1CCCN1C(=O)[C@@H]1CCCN1C(=O)[C@H](CCC(=O)O)NC(=O)CN)C(=O)N[C@H](C(=O)O)C(C)C | F-box only protein 22 | binding, SPR |  |  | 32 µM |
| CC[C@H](NC(=O)[C@H](CCC(=O)O)NC(=O)[C@H](CCCNC(=N)N)NC(=O)[C@H](C)NC(=O)[C@H](Cc1c[nH]c2ccccc12)NC(=O)[C@H](CCC(=O)O)NC(=O)[C@H](CCC(=O)O)NC(=O)[C@H](CCC(=O)O)NC(C)=O)C(=O)NCC(=O)N[C@@H](C)C(=O)N[C@@H](CCC(N)=O)C(=O)N[C@@H](CC(C)C)C(=O)N[C@@H](CCCNC(=N)N)C(=O)N[C@@H](CCCNC(=N)N)C(=O)N[C@@H](C)C(=O)N[C@@H](C)C(=O)N[C@@H](CC(=O)O)C(=O)N[C@@H](CC(=O)O)C(=O)N[C@@H](CC(C)C)C(=O)N[C@@H](CC(N)=O)C(=O)N[C@@H](C)C(=O)N[C@@H](CCC(N)=O)C(=O)N[C@@H](Cc1ccc(O)cc1)C(=O)N[C@@H](CCC(=O)O)C(=O)N[C@@H](CCCNC(=N)N)C(=O)N[C@@H](CCCNC(=N)N)C(=O)N[C@@H](CCCNC(=N)N)C(N)=O | Induced myeloid leukemia cell differentiation protein Mcl-1 homolog, residues 152-308 (Mus musculus, UniProt P97287) | binding, SPR | 0.2% DMSO |  | 0.011 µM |
| CC[C@H](C)[C@H](NC(=O)[C@H](CO)NC(=S)Nc1ccc2c(c1)C(=O)OC21c2ccc(O)cc2Oc2cc(O)ccc21)C(=O)N[C@@H](CCC(=O)O)C(=O)N[C@@H](CCCCN)C(=O)NCC(=O)NCC(=O)N[C@@H](CCP(=O)(O)O)C(=O)N[C@@H](CC(C)C)C(=O)N1CCC[C@H]1C(=O)N[C@@H](CCCCN)C(=O)N[C@H](C(=O)N[C@@H](Cc1c[nH]c2ccccc12)C(=O)N[C@@H](CC(C)C)C(=O)N[C@H](C(=O)N1CCC[C@H]1C(=O)N[C@@H](CCCNC(=N)N)C(=O)O)C(C)C)C(C)C | 14-3-3 protein theta (Homo sapiens, UniProt P27348) | binding, fluorescence anisotropy | pH 7.5, FITC-labelled phosphopeptide titration |  | 88 µM |
| CC(C)C[C@@H]1NC(=O)[C@@H]2CSSC[C@@H](C(=O)NCC(=O)O)NC(=O)[C@H](Cc3ccccc3)NC(=O)CNC(=O)[C@H](CC(N)=O)NC(=O)[C@@H]3CCCN3C(=O)CNC(=O)[C@@H]3CSSC[C@H](NC(=O)[C@H](CC(C)C)NC(=O)[C@H](Cc4c[nH]cn4)NC(=O)[C@H](Cc4c[nH]cn4)NC(=O)[C@H](CCCCN)NC(=O)[C@H](C(C)C)NC(=O)[C@H](Cc4ccc(O)cc4)NC(=O)[C@H](CC(N)=O)NC(=O)[C@H](Cc4c[nH]cn4)NC(=O)[C@H](CO)NC(=O)[C@H](CCC(N)=O)NC(=O)[C@@H](NC(=O)CN)CSSC[C@H](NC(=O)CNC(=O)[C@H](C)NC1=O)C(=O)N[C@@H](C(C)C)C(=O)N3)C(=O)N[C@@H](CCCCN)C(=O)N[C@@H](CCC(N)=O)C(=O)N[C@@H](CC(=O)O)C(=O)N[C@@H](CO)C(=O)N[C@@H](CC(=O)O)C(=O)N2 | Low-density lipoprotein receptor-related protein 6, E1 domain (LRP6, Homo sapiens, UniProt O75581) | binding, SPR | pH 7.5 |  | 0.00296 µM |

Some of these lines once more:
| SMILES | target | test | setting | scale | Kd |
| --- | --- | --- | --- | --- | --- |
| CC(C)C[C@H](NC(=O)CNC(=O)[C@H](C)NC(=O)[C@H](CC(=O)O)NC(=O)[C@H](CC(=O)O)NC(=O)[C@H](C)NC(=O)[C@@H]1CCCN1C(=O)[C@H](CCCCN)NC(=O)CNC(=O)[C@H](C)NC(=O)[C@@H]1CCCN1C(=O)[C@@H]1CCCN1C(=O)[C@H](CCC(=O)O)NC(=O)CN)C(=O)N[C@H](C(=O)O)C(C)C | F-box only protein 22 | binding, SPR |  |  | 24 µM |
